Measured values collected from several papers.
Every numbered part comes from another study and shows a few of its results, in no order. Changes are numbered by the printed parent chain.

Sample 1
Target: Centromere-binding protein 1, full length, N-terminal tag (CBF1, Saccharomyces cerevisiae, UniProt P17106, residues 1-351)
UniProt P17106, sequence (whole entry, looked up): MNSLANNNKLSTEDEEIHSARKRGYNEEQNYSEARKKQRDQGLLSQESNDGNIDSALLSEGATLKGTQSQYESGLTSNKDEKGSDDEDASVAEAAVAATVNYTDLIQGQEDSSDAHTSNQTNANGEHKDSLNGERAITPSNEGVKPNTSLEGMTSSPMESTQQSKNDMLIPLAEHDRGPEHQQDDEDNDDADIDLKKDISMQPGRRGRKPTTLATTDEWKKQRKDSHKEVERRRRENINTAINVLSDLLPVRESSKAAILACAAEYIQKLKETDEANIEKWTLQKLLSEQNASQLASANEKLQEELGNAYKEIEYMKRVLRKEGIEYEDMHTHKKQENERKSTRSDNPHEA
Method: protein-binding microarray
Form: double-stranded DNA, one strand shown
Medium: in vitro
Tested at: 0.8 µM
Setting: whole 60-bp probe, no competitor
Reading: higher = stronger binding
`CCTAACTACTATAGTGACAAGATATAGCTTCGTACAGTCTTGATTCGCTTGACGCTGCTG` gave a fluorescence intensity of 503 a.u.
For `GAATTATATTAGAGTAACTTAATCACGTGTTAATAGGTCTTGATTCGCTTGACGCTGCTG`, the fluorescence intensity was 17000 a.u.
`GAATCACATGAGAATCACGTGAATTTTCAGATATAGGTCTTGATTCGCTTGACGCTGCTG` has a fluorescence intensity of 11200 a.u.
`GAAATAATTTATAATCACGCCTGGGTAAATGACTAGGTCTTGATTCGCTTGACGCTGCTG` gave a fluorescence intensity of 1190 a.u.
`CTAACACTTCTGAGAAGCCACGTGTAGAGGGGTTTCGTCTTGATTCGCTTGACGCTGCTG` gave a fluorescence intensity of 2090 a.u.
The fluorescence intensity of `GAACTTAACTGTACAAACGTGTATGAAGTATTGTAGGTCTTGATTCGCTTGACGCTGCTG` is reported as 569 a.u.
For `CCTAACTACTATAACCATGTGACATAGCTTCGTACAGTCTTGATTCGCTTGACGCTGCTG`, the fluorescence intensity was 3020 a.u.
For `TGTACGAAGCTATGCGGTGTGATTATAGTAGTTAGGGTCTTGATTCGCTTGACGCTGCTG`, the fluorescence intensity was 535 a.u.
The fluorescence intensity of `TGTACGAAGCTATTATGCGTGGTTATAGTAGTTAGGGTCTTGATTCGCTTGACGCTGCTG` is reported as 534 a.u.
`GAAATCGCGCGTTCACACGTCACACCGCAGCATTAGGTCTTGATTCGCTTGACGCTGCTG` has a fluorescence intensity of 676 a.u.
The fluorescence intensity of `CTATGTATCTGTGCCCATGTGATCTGTACCTTTTTCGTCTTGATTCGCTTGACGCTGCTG` is reported as 2880 a.u.
`GAAAAGTATTTTCATATGATGATGCTGACTTAATAGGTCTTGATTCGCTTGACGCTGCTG` has a fluorescence intensity of 596 a.u.
`CTAAATAACCTAATTCACGTTACCCACCTTTTTTTCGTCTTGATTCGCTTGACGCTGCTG` has a fluorescence intensity of 605 a.u.
`CTAAATAAGTAACATCATGTGTCATTTTGCACGTTCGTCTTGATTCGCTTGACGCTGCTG` has a fluorescence intensity of 931 a.u.
For `GAAATACGCAACAGTCACGTTATATTCATGCAATAGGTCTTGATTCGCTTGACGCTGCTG`, the fluorescence intensity was 1580 a.u.
`GAACCATGGAATTACCTCACGTTGTTCACATTATAGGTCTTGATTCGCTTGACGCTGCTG` has a fluorescence intensity of 638 a.u.
With `GAATGGAGCCTTGCCCACTTCCTCGATCGGAATTAGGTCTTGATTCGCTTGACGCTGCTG` the fluorescence intensity was 478 a.u.
The fluorescence intensity of `CTAACAAACAAAGGCAACGTGCAGTAAACAACCTTCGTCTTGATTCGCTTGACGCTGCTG` is reported as 637 a.u.
The fluorescence intensity of `GAAACATTGCTACATCAGCAGATCAAAGCATTTTAGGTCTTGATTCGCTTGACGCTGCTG` is reported as 654 a.u.
`GAATGCGATACTTATCACGTACTTTGTATACATTAGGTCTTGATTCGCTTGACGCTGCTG` has a fluorescence intensity of 634 a.u.
`CTAGCTCAACATAGACACGTTATGGACGGGCATTTCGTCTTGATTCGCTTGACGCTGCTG` has a fluorescence intensity of 508 a.u.
The fluorescence intensity of `GAAGACGTAGTGTGTGGTGTGGTATAGTACGCGTAGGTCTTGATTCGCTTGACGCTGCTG` is reported as 529 a.u.
`CTAGTTCCTTGGAACCACATGATTTACTCAACATTCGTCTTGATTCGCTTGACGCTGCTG` has a fluorescence intensity of 998 a.u.
With `TGTACGAAGCTATGTCCTGATGTTATAGTAGTTAGGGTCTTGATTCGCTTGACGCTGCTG` the fluorescence intensity was 546 a.u.
The fluorescence intensity of `CTATGACTAATTCATCACCAAAGAGAAATATGCTTCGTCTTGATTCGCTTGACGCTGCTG` is reported as 535 a.u.

Sample 2
Target: ABI1, truncated, D143A, DHFR fusion (Arabidopsis thaliana)
Method: DHFR PCA, deep sequencing
Medium: yeast
Setting: methotrexate growth selection, single substitutions
With: (+)-ABA 0.0091 µM
Reference: wild-type fitted maximum
Reading: higher = stronger binding
Parent: PYL1, truncated, DHFR fusion (Arabidopsis thaliana); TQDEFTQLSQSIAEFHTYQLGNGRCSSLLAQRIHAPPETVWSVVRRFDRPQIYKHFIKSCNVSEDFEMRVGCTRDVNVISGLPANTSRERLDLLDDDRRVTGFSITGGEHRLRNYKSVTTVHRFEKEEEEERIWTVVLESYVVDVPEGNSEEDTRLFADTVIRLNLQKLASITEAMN; partner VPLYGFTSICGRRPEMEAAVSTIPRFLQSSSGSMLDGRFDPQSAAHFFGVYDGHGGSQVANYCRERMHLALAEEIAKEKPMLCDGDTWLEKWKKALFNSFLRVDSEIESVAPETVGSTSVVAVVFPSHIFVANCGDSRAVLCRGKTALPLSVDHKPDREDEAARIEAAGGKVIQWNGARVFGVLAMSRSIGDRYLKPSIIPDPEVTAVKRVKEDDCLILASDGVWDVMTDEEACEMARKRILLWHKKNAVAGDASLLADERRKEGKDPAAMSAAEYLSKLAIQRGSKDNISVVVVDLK
Under “relative binding score”, `E4L` is recorded as 26.4%.
Under “relative binding score”, `Q2F` is recorded as 67.9%.
`R74F` — result for “relative binding score”: -0.951%.
`T1I`: “relative binding score” 34.3%.
For `D97V`, “relative binding score” read 30.4%.
`T119C` — result for “relative binding score”: -0.0268%.
`E129F` — result for “relative binding score”: 6.95%.
For `K168A`, “relative binding score” read 1.3%.
Under “relative binding score”, `R99K` is recorded as 46.6%.
For `E4N`, “relative binding score” read 2.76%.
`E38M`: “relative binding score” -7.74%.
Under “relative binding score”, `R88G` is recorded as -1.71%.
`L169Q`: “relative binding score” -1.96%.
`D153L` — result for “relative binding score”: -2.35%.
`A175K` — result for “relative binding score”: 23.3%.
`P37A`: “relative binding score” 23.8%.
Under “relative binding score”, `Q167F` is recorded as -4.01%.
`P36R` — result for “relative binding score”: 13.6%.
Under “relative binding score”, `E128Q` is recorded as 25.4%.
Under “relative binding score”, `N85W` is recorded as 42.2%.
`R88K`: “relative binding score” 33.8%.

Sample 3
Target: CCNE1, cyclin fold, Cln2 fusion (human)
Method: yeast growth competition, sequencing
Medium: yeast
Setting: strong parent motif
Reference: not given
Reading: higher = stronger binding
Parent: RBL1 docking peptide (human); GSAKRRLFGEDPP
Under “normalised enrichment score”, `E10W` is recorded as 4.05.
`R5F`: “normalised enrichment score” 0.205.
`D11V`: “normalised enrichment score” 5.06.
For `F8R`, “normalised enrichment score” read 0.0533.
`L7A` — result for “normalised enrichment score”: -0.235.
For `G9V`, “normalised enrichment score” read 7.67.
`D11E`: “normalised enrichment score” 6.28.
`F8W`: “normalised enrichment score” 3.43.
For `G9A`, “normalised enrichment score” read 7.89.
`E10L` — result for “normalised enrichment score”: 4.65.
`L7S` — result for “normalised enrichment score”: 0.453.
`R6V`: “normalised enrichment score” 5.09.
`R5H` — result for “normalised enrichment score”: 1.16.
For `K4M`, “normalised enrichment score” read 2.87.
`R5Q`: “normalised enrichment score” 0.188.
`S2C` — result for “normalised enrichment score”: 6.12.
For `K4Y`, “normalised enrichment score” read 1.54.
`G1W`: “normalised enrichment score” 6.43.
Under “normalised enrichment score”, `L7V` is recorded as 1.02.
`P13A`: “normalised enrichment score” 6.2.
`P13K` — result for “normalised enrichment score”: 4.82.
`P13T`: “normalised enrichment score” 5.7.
For `R5A L7A`, “normalised enrichment score” read -0.303.
For `P13R`, “normalised enrichment score” read 5.73.
`L7K` — result for “normalised enrichment score”: 1.1.

Mixed results
For `PhoQ, residues 284 288 289 292 302 303 ALVSVA`, the fold induction was 1.4 (PhoP, residues 12 14 15 18 19 HEGLL (Escherichia coli, UniProt P23836); Sort-seq, refers to: YFP reporter; E. coli; PhoQ-PhoP variant library, with: 10 µM Mg2+; reference: high Mg2+ state, higher = stronger signaling).

A few entries again (sample 3):
`S2C` — result for “normalised enrichment score”: 6.12.
For `K4Y`, “normalised enrichment score” read 1.54.
`G1W`: “normalised enrichment score” 6.43.
Under “normalised enrichment score”, `L7V` is recorded as 1.02.
`P13A`: “normalised enrichment score” 6.2.
`P13K` — result for “normalised enrichment score”: 4.82.
